Measurements pooled from the literature.
Each line is one published result; not all experiments were run side by side.
Cell line: U2OS

SMILES	assay	conditions	quantity	result
CC(C)=CC1OC(C)(C)C2C=C3C(=O)C(Cl)=CC(O)C3C3C(O)C4OC4C(=O)C132 (stereo not drawn)	cell growth or viability, MTS	–	IC50	3560 nM
O=C(Nc1cc(OCCN2CCCC2)c2ccccc2n1)c1cccc(C(=O)Nc2cc(OCCN3CCCC3)c3ccccc3n2)n1	cell growth or viability, ATP luminescence	72 h	IC50	800 nM
O=c1c(-c2cnn(-c3ccccc3)c2)c(C(F)(F)F)oc2c(O)c(O)ccc12	apoptosis, annexin V flow cytometry	–	EC50	~78000 nM
CC(C)c1ccc(N(C)c2ccc3c(c2)OCC[C@H]3CNc2cnccc2C(=O)O)cc1	cell viability, CellTiter-Glo	7 days	IC50	9.01 nM
NCCCn1cc(COc2cc(C(=O)Nc3cc(OCCN)c4ccccc4n3)nc(C(=O)Nc3cc(OCCN)c4ccccc4n3)c2)nn1	cell growth or viability, ATP luminescence	72 h	IC50	> 40000 nM
Cn1ncc(-c2ccc3c(=O)[nH]nc(CN)c3c2)c1-c1c(F)c(Cl)cc(OC2CC2)c1C#N	cell viability, inhibitor, CellTiter-Glo	120 h, baseline-subtracted	IC50	4570 nM
CCN1CCN(Cc2ccc(C(=O)Nc3ccc(C)c(NCc4cnc5[nH]ccc5c4OC)c3)cc2C(F)(F)F)CC1	cell growth or viability	–	GI50	1200 nM
CCN(C(=O)c1cc(F)ccc1Oc1nncnc1N1CCC2(C1)CN([C@H](CCCN(C)CCOC)C(C)C)C2)C(C)C	cell growth or viability	72 h	GI50	> 10000 nM
NCCOc1cc(NC(=O)c2cc(Cl)cc(C(=O)Nc3cc(OCCN)c4ccccc4n3)n2)nc2ccccc12	cell growth or viability, ATP luminescence	72 h	IC50	800 nM

Some of these lines once more:
SMILES	assay	conditions	quantity	result
NCCCn1cc(COc2cc(C(=O)Nc3cc(OCCN)c4ccccc4n3)nc(C(=O)Nc3cc(OCCN)c4ccccc4n3)c2)nn1	cell growth or viability, ATP luminescence	72 h	IC50	> 40000 nM
